Measurements from different studies.
Numbers after ± are the reported error.

Compound	method	medium	time	pH	temperature	setting	kinetic solubility
NC(=O)c1cccc(-c2nc(N3CCC(c4ccccn4)C3)c3ccccc3n2)c1 (stereo not drawn)	–	Japanese Pharmacopoeia disintegration test solution 2	–	pH 6.8	–	–	4 µg/mL
COc1cc2[nH]c(C)c(-c3ccc(Oc4ccccc4)cc3)c(=O)c2cc1Cl	–	–	–	pH 7.4	–	–	< 2 µM
CCn1cnc2c(N3CCC(c4ccccn4)C3)nc(-c3ccccn3)nc21 (stereo not drawn)	–	Japanese Pharmacopoeia disintegration test solution 2	–	pH 6.8	–	–	83 µg/mL
CS(=O)(=O)c1ccc(C(=O)N2CCCCC2)cc1	–	PBS	2 h	pH 7.4	25 °C	2% DMSO	308 µM
Cc1ccn2c(NC3CCCC3)c(-c3ccc(N(C)C)cc3)nc2c1	shake flask HPLC-UV	sodium phosphate buffer	24 h	pH 2.0	–	2% DMSO	66.9 µg/mL
Cc1ccc(-c2nc3ccccc3s2)cc1NC(=O)c1cc([N+](=O)[O-])c(NC2CCN(C)CC2)cc1Cl	–	phosphate buffer	–	pH 7.4	–	–	< 1.6 µM
NS(=O)(=O)c1nnc(NC(=O)CCC2CC3CCC2C3)s1 (stereo not drawn)	–	PBS	–	pH 7.4	–	–	60.5 µM
COc1cc2[nH]c(C)c(-c3ccc(C(C)=O)cc3)c(=O)c2cc1Cl	–	–	–	pH 7.4	–	–	< 2 µM
Clc1ccc2nc(-c3ccccn3)c(Nc3ccc4c(c3)OCCO4)n2c1	shake flask HPLC-UV	sodium phosphate buffer	24 h	pH 2.0	–	2% DMSO	75.8 µg/mL
O=C(Nc1cncc(-c2nc3ccccc3s2)c1)c1cc([N+](=O)[O-])c(F)cc1Cl	–	phosphate buffer	–	pH 7.4	–	–	< 1.6 µM
CC/C=C\C/C=C\C/C=C\C/C=C\C/C=C\C/C=C\CCC(=O)O.Cc1cc(/C=C/C#N)cc(C)c1Nc1ccnc(Nc2ccc(C#N)cc2)n1	–	Capmul MCM C8	–	–	–	–	~50000 µg/mL
COc1cc2[nH]c(C)c(-c3ccc(C(C)C)cc3)c(=O)c2cc1Cl	–	–	–	pH 7.4	–	–	< 2 µM
CC(Nc1nc(-c2ccccn2)nc2ccccc12)c1ccccn1 (stereo not drawn)	–	Japanese Pharmacopoeia disintegration test solution 2	–	pH 6.8	–	–	80 µg/mL
C=C(NC(=O)c1csc(-c2nc3c(cc2O[C@@H]2O[C@H](CO)[C@@H](O)[C@H](O)[C@H]2O)-c2nc(cs2)C(=O)N[C@@H]([C@@H](C)O)C(=O)N/C(=C\C)c2nc(cs2)C(=O)N[C@H]2C[C@H](O)C(=O)OCc4cccc5[nH]c(c(C)c45)C(=O)SC[C@H](NC(=O)c4csc2n4)c2nc-3cs2)n1)C(N)=O	HPLC	citrate buffer	–	pH 6.0	–	5% DMSO	0.596 µg/mL
CCc1c(C)[nH]c2cc(OC)c(Cl)cc2c1=O	–	–	–	pH 7.4	–	–	6 to 12 µM
O=C(Nc1ccc(Cl)c(Cl)c1)c1cc([N+](=O)[O-])c(F)cc1Cl	–	phosphate buffer	–	pH 7.4	–	–	< 1.6 µM
COCCOCc1ccc(-c2cc3onc(-c4ccccc4)c3c(=O)n2C)cc1	–	aqueous buffer	90 min	pH 7.4	25 °C	0.1% DMSO	44.5 ± 0.2 µM
Cc1ccc(-c2nc3ccccc3o2)cc1NC(=O)c1cc([N+](=O)[O-])c(N2CCN(C)CC2)cc1Cl	–	phosphate buffer	–	pH 7.4	–	–	< 1.6 µM
CN(C)C(=O)CCc1nc(-c2ccccc2)c(-c2ccccc2)o1	–	aqueous buffer	90 min	pH 7.4	25 °C	0.1% DMSO	50.3 ± 2.7 µM
Fc1cccc(Nc2nc(-c3ccccn3)nc3ccccc23)c1	–	Japanese Pharmacopoeia disintegration test solution 2	–	pH 6.8	–	–	1 µg/mL
O=C(Nc1ccc(Cl)c(Cl)c1)c1cc([N+](=O)[O-])c(F)cc1F	–	phosphate buffer	–	pH 7.4	–	–	< 0.3 µM
Cc1nc2c(Cl)cccn2c1NC(=O)c1ccc(-c2ccc(N(C)C)cc2)o1	–	aqueous buffer	90 min	pH 7.4	25 °C	0.1% DMSO	74.8 ± 4.4 µM
c1ccc(-c2nc(N3CCOCC3)c3ccccc3n2)nc1	–	Japanese Pharmacopoeia disintegration test solution 2	–	pH 6.8	–	–	83 µg/mL
O=C1NN(c2ccccc2)C(=O)/C1=C/c1ccc(Sc2cccc3ccccc23)o1	–	PBS	24 h	pH 7.4	21 °C	2.0% DMSO	< 3 µM
Cc1[nH]c(C)c(S(=O)(=O)Nc2ccc(C(F)(F)F)c(Cl)c2)c1C(=O)N1CCC(F)(F)C1	–	–	–	–	–	–	89 µM
CCN(CC)CCNC(=O)c1cc(S(C)(=O)=O)cnc1OC	–	PBS	2 h	pH 7.4	25 °C	–	394 µM

Compound	method	medium	time	pH	temperature	setting	kinetic solubility
Cc1ccc(C2CC(=O)N3CN(c4ccc(Br)cc4)CSC3=C2C#N)o1 (stereo not drawn)	–	PBS	24 h	pH 7.4	21 °C	2.0% DMSO	135 µM
c1ccc(-c2nc(N3CCCCCC3)c3ccccc3n2)nc1	–	Japanese Pharmacopoeia disintegration test solution 2	–	pH 6.8	–	–	79 µg/mL
CS(=O)(=O)c1cnc(NS(=O)(=O)c2ccc(N)cc2)nc1.Cl	–	PBS	2 h	pH 7.4	25 °C	2% DMSO	391 µM
COc1ccn2c(Nc3ccc(F)cn3)c(-c3ccccn3)nc2c1	shake flask HPLC-UV	sodium phosphate buffer	24 h	pH 2.0	–	2% DMSO	76.3 µg/mL
COc1cc2[nH]c(C)c(-c3ccc(F)cc3F)c(=O)c2cc1Cl	–	–	–	pH 7.4	–	–	2 to 6 µM
NS(=O)(=O)c1nnc(NC(=O)CCC2CCC(F)(F)CC2)s1	–	PBS	–	pH 7.4	–	–	197 µM
COC(=O)c1cn(C)c2ccc(-c3ccccc3)cc12	–	aqueous buffer	90 min	pH 7.4	25 °C	0.1% DMSO	90.5 ± 1.5 µM
O=C1/C(=C/C=C/c2ccco2)SC(=S)N1c1ccc(O)cc1	–	PBS	24 h	pH 7.4	21 °C	2.0% DMSO	112 µM
Cc1ccc2nc(-c3ccccn3)c(Nc3ccc4c(c3)OCCO4)n2c1	shake flask HPLC-UV	sodium phosphate buffer	24 h	pH 2.0	–	2% DMSO	71.7 µg/mL
CCOC(=O)[C@](CC)(CCCS(=O)(=O)CCOCCOCCNC(=O)OC(C)(C)C)NC(=O)c1ccc(C2CC2)c(Cc2ccc(F)cc2)n1	–	aqueous buffer with DMSO	–	–	–	–	< 0.4 µg/mL
Cc1cc(Cl)c(Cl)cc1NC(=O)c1cc([N+](=O)[O-])c(F)cc1F	–	phosphate buffer	–	pH 7.4	–	–	< 0.3 µM
Cc1onc(-c2ccccc2)c1-c1ccc(S(N)(=O)=O)cc1	–	aqueous buffer	90 min	pH 7.4	25 °C	0.1% DMSO	58.3 ± 1.5 µM
CCn1cc2c(N3CCC(c4ccccn4)C3)nc(-c3ccccn3)nc2n1 (stereo not drawn)	–	Japanese Pharmacopoeia disintegration test solution 2	–	pH 6.8	–	–	84 µg/mL
COc1cc2[nH]c(C)c(-c3c(C)noc3C)c(=O)c2cc1Cl	–	–	–	pH 7.4	–	–	≥ 20 µM
COc1c(/C=C/c2ccc(NS(C)(=O)=O)cc2)cc(-n2ccc(=O)[nH]c2=O)cc1C(C)(C)C	chemiluminescent nitrogen detection	water	–	pH 7.2	23 °C	–	-4.68 log S
O=C(O)C[C@H](O)C[C@H](O)/C=C/c1c(C2CC2)nc2ccccc2c1-c1ccc(F)cc1	–	aqueous buffer	90 min	pH 7.4	25 °C	0.1% DMSO	≥ 100 µM
CCn1cc(Cl)c2c(Cc3ccc(C(F)(F)F)nc3)n(C)nc2c1=O	nephelometry	phosphate buffer	30 min	pH 6.5	–	1% DMSO	67 to 140 µM
N#C/C(=C\c1ccc(O)c(O)c1)S(=O)(=O)c1ccccc1	–	PBS	24 h	pH 7.4	21 °C	2.0% DMSO	208 µM
Cc1cc(Cl)c(Cl)cc1NC(=O)c1cc([N+](=O)[O-])c(F)cc1Cl	–	phosphate buffer	–	pH 7.4	–	–	< 1.6 µM
CCCCCOc1ccc(C2C(C(=O)c3ccc(C)o3)=C(O)C(=O)N2c2cc(C)on2)cc1 (stereo not drawn)	–	PBS	24 h	pH 7.4	21 °C	2.0% DMSO	77.5 µM
CC(C)n1c(/C=C/C(O)CC(O)CC(=O)O)c(-c2ccc(F)cc2)c2ccccc21 (stereo not drawn)	–	aqueous buffer	90 min	pH 7.4	25 °C	0.1% DMSO	≥ 100 µM
COc1cc2[nH]c(C)c(-c3ccc(C=O)cc3)c(=O)c2cc1Cl	–	–	–	pH 7.4	–	–	< 2 µM
COc1ccc(C(=O)N2CCCCC2)cc1	–	PBS	2 h	pH 7.4	25 °C	–	341 µM
COc1cc2[nH]c(C)c(-c3ccccc3)c(=O)c2cc1Cl	–	–	–	pH 7.4	–	–	2 to 6 µM
c1ccc(-c2nc(N3CCc4ncccc4C3)c3ccccc3n2)nc1	–	Japanese Pharmacopoeia disintegration test solution 2	–	pH 6.8	–	–	78 µg/mL
